{"data": "Results pooled from the literature", "note": "A part holds a random share of what one study measured."}
{"data": "Sample 1", "target": "Histone acetyltransferase KAT6A, both winged helices, GST fusion (KAT6A, Homo sapiens, UniProt Q92794, residues 1-181)", "technique": "protein binding microarray", "form": "double-stranded DNA, one strand shown", "sample": "in vitro", "concentration": "not given", "notes": "8-mer, flanks averaged, mean of 2 arrays, mostly near background", "reference": "not given", "reading": "higher = stronger binding", "Target sequence (chain)": "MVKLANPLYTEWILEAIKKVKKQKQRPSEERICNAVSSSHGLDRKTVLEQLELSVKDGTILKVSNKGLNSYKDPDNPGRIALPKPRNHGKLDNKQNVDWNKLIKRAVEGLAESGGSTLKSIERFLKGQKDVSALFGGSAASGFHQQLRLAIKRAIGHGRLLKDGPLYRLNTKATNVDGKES"}
{"Strand": "ATGATAAA", "E-score": 0.0484}
{"Strand": "ACCCCCGG", "E-score": 0.212}
{"Strand": "TAGCCTCA", "E-score": -0.238}
{"Strand": "CAATGCCC", "E-score": -0.0429}
{"Strand": "ACGTAACC", "E-score": 0.0932}
{"data": "Sample 2", "target": "PABPC1L2, full length, GST fusion (mouse, UniProt A0ABA7IW68)", "technique": "RNAcompete", "form": "RNA", "sample": "in vitro", "concentration": "20 nM", "notes": "7-mer, probes averaged, single round", "reference": "mean of 7-mers", "reading": "higher = stronger binding", "Residues (chain)": "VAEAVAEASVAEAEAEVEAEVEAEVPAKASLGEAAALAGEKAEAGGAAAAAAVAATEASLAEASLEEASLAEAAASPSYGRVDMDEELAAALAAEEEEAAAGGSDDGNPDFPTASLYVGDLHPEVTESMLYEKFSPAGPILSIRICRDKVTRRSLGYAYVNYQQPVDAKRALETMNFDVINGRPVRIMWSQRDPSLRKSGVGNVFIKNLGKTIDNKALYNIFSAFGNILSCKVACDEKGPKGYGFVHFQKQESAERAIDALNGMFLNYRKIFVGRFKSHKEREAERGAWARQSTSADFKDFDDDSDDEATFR"}
{"Strand": "GCCUCAA", "7-mer Z-score": -0.2}
{"Strand": "CCGUCGC", "7-mer Z-score": -0.527}
{"Strand": "GCCCUAU", "7-mer Z-score": -0.318}
{"Strand": "CAUCCUG", "7-mer Z-score": -0.353}
{"Strand": "CUUGUCA", "7-mer Z-score": -0.393}
{"data": "Sample 3", "target": "RNA binding protein fox-1 homolog 2, RRM domain, GST-SBP tag (RBFOX2, Homo sapiens, UniProt O43251-10, residues 100-194)", "technique": "RNA Bind-n-Seq", "form": "RNA", "sample": "in vitro", "concentration": "365 nM", "notes": "natural RNA segment, single round, ends assumed", "reference": "no-protein control", "reading": "higher = stronger binding", "shared flanks, not repeated": "GGGAGUUCUACAGUCCGACGAUC … UGGAAUUCUCGGGUGCCAA"}
{"Strand": "GCUGUUAAAUUUCUUCAAGUCCAGAGAAGCAAAUCUUAGUGCGGGCAGACCGAGUUAGUGUUUGAUGCGACUAUCUCCAUCCUUAGUAUGGAUGUGGUCAGUUCUGCACA", "RBNS enrichment (R)": 0.502}
{"Strand": "AUGUUUCAGUCUUUCGGAGUAAAUCACAUUUGUGAUAAUCAUACUAGAUCUCUGUCUUCAGUCUCAUUUAAAGUCUUCAUGAAAUGCUGUGCCAUUUCAUGUCCUGUGUC", "RBNS enrichment (R)": 0.503}
{"Strand": "AGAUGUCCUGAGGAGAAAAGCUGGACAUAUACUGGGCUUCACACUUAUCUUAUGGCUUGGCAGAAUCUUUGUAGUGUGUGGGAUCUCUGAAGGCCCUAUUUAAGUUUUUC", "RBNS enrichment (R)": 1.18}
{"Strand": "GCUGUGUGCCAGCCUGAGACGGUUCCUGCCUGUCUUGGGGGUUGGUGGAGGGUGGAGGCAGUUCUGCCAGCCGUGGCAGGGCUGCUAUGGGGCAUCCAGGGCUGUGGGGG", "RBNS enrichment (R)": 0.582}
{"Strand": "CUUUUAGAAUAAAGCUGCUACUUUAACAGAGCACCUGGCGUGGGCCAAGUGCCUGAUACUCCCUUACACUGAAUCAUGUUAUGAUUUAUAGAAAUACCUUUCCUGUAGCU", "RBNS enrichment (R)": 0.391}
{"data": "Further values, each from its own experiment"}
{"Molecule": "PhoQ, residues 284 288 289 292 302 303 SIHLQL", "target": "PhoP, residues 12 14 15 18 19 QYCSL (Escherichia coli, UniProt P23836)", "test": "Sort-seq, item: YFP reporter", "system": "E. coli", "setting": "PhoQ-PhoP variant library, added: 10 µM Mg2+", "how to read": "reference: high Mg2+ state, higher = stronger signaling", "quantity": "fold induction", "value": 5.31}
{"note": "Excerpt of the above (sample 2):"}
{"Strand": "GCCCUAU", "7-mer Z-score": -0.318}
{"Strand": "CAUCCUG", "7-mer Z-score": -0.353}
